Measurements gathered from unrelated publications.
Each line is one published result; not all experiments were run side by side.

Compound	assay	test system	setting	tumour growth inhibition [%]
COc1cc(/C=C/C(=O)NCCCCCCNC2=C3C[C@@H](C)C[C@H](OC)[C@H](O)[C@@H](C)/C=C(\C)[C@H](OC(N)=O)[C@@H](OC)/C=C\C=C(/C)C(=O)NC(=CC2=O)C3=O)ccc1O	measured: tumour weight	MDA-MB-231, mouse xenograft	intravenous, 10 mg/kg every three days, 15 d	78.9
NC(CSSCC(N)C(=O)N1CCn2cc(-c3ccccc3)nc2C1CC1CCCCC1)C(=O)N1CCn2cc(-c3ccccc3)nc2C1CC1CCCCC1 (stereo not drawn)	–	mouse MP41 xenograft	intraperitoneal, 15 mg/kg/day, 21 d	55.3
N#Cc1cccc(-c2ccc(=O)n(Cc3cccc(-c4ncc(OCC5CCN(CC(=O)NCCOCCNc6ccc7c(c6)C(=O)N(C6CCC(=O)NC6=O)C7=O)CC5)cn4)c3)n2)c1 (stereo not drawn)	–	mouse Hs746T xenograft	oral, 40 mg/kg daily, 12 days	88.5
Cc1cc(NC(=O)[C@H](O)c2cc(F)cc(F)c2)ccc1-c1cnc(N)c(C(=O)NC(C)C)c1	–	mouse 786-O xenograft	oral, 30 mg/kg twice daily, 28 days	48
O=c1[nH]c(N2CCC3(CC2)CN(CCO)c2cc(F)cc(F)c23)nc2c1CCCC2	–	mouse, COLO 320DM xenograft	intraperitoneal, 150 mg/kg twice daily, 11 days	47.2
CN1Cc2cnc3ccc(-c4ccc(N)nc4)nc3c2N(c2cccc(C(F)(F)F)c2)C1=O	–	PC-3 xenograft, mouse	oral, 15 mg/kg once daily, 14 days	37.3
CN1CCN(c2ccc(Nc3ncc(Cl)c(Nc4ccccc4P(C)(C)=O)n3)cc2Br)CC1	–	mouse, PC9-OR xenograft	oral, 30 mg/kg once daily, 14 days	83.5
C=CC(=O)N1C[C@H](C)N(c2nc(OC[C@@]34CCCN3C[C@H](F)C4)nc3c(F)c(-c4ccc(F)c5sc(N)c(C#N)c45)c(C(F)(F)F)cc23)C[C@H]1C	–	mouse MIA PaCa-2 xenograft	oral, 0.1 mg/kg daily, 28 days	21
CC(=O)Oc1c2c(c3ccc4c(c3c1OC(C)=O)C=CC(=O)C4(C)C)OC[C@@H]2C	–	mouse 4T1 tumour	intravenous, 10 mg/kg daily, together with: anti-Ly6G neutrophil depletion	19.6
Cc1cc(O)cc(O)c1C(=O)c1c2c3c(c(O)cc(C)c3oc1=O)C(=O)c1c(O)cc(O)cc1-2	–	H22 subcutaneous, mouse	intraperitoneal, 5 mg/kg daily	55
N#Cc1cccc(-c2ccc(=O)n(Cc3cccc(-c4ncc(OCC5CCN(CC(=O)N6CCN(c7ccc8c(c7)C(=O)N(C7CCC(=O)NC7=O)C8=O)CC6)CC5)cn4)c3)n2)c1 (stereo not drawn)	–	mouse Hs746T xenograft	oral, 20 mg/kg daily, 12 days	91.6
NC(=O)c1cccnc1.O.O=c1[nH]cc(F)c(=O)[nH]1.O=c1[nH]cc(F)c(=O)[nH]1.O=c1[nH]cc(F)c(=O)[nH]1	–	nude mouse HCT-116 xenograft	0.018 mmol/kg/day, 21 days	39.2
